Published values pooled from the literature.
“And” joins repeats or separate records; there may be more than shown. Numbers after ± are the reported error.

Compound | test | system | conditions | scale | measurement | result
C#Cc1c(F)ccc2cc(O)cc(-c3ncc4c(N5CC6CCC(C5)N6C(=O)OC(C)OC(=O)CC5CCCC5)nc(OC[C@@]56CCCN5C[C@H](F)C6)nc4c3F)c12 (stereo partly shown) | chemical stability | simulated intestinal fluid | 1 µM, 30 min | – | compound remaining | 67.9%
CCCC[C@H]1C(=O)N(C)[C@@H](CCCC)C(=O)N[C@@H](CCCNC(=O)CN2CCN(CC(=O)O)CCN(CC(=O)O)CCN(CC(=O)O)CC2)C(=O)N[C@H](C(=O)NCC(N)=O)CSCC(=O)N[C@@H](Cc2ccc(O)cc2)C(=O)N(C)[C@@H](C)C(=O)N[C@@H](CC(N)=O)C(=O)N2CCC[C@H]2C(=O)N[C@@H](Cc2c[nH]cn2)C(=O)N[C@@H](CC(C)C)C(=O)N(C)CC(=O)N[C@@H](Cc2c[nH]c3ccccc23)C(=O)N[C@@H](CO)C(=O)N[C@@H](Cc2c[nH]c3ccccc23)C(=O)N1C [gallium-68 labelled] | – | NOD/SCID mice with CHO-hPD-L1 xenograft, bone | 60 min post injection | – | tissue uptake | 4.96 ± 1.31 %ID/g
CSCC[C@H](NC(=O)CNC(=O)[C@H](CCCCN)NC(=O)[C@H](CC(C)C)NC(=O)[C@@H]1CCCN1C(=O)[C@H](CO)NC(=O)[C@H](Cc1c[nH]cn1)NC(=O)[C@H](Cc1c[nH]c2ccccc12)NC(=O)[C@H](CCCNC(=N)N)NC(=O)[C@H](CC(C)C)NC(=O)[C@H](CCCNC(=N)N)NC(=O)[C@H](Cc1c[nH]c2ccccc12)NC(=O)[C@H](CS)NC(=O)CCCCCNC(=O)CN1CCN(CC(=O)O)CCN(CC(=O)O)CCN(CC(=O)O)CC1)C(=O)O [copper-64 labelled] | – | C57BL/6J mice, B16-F10 tumour | intravenous, 1.85 MBq, 0.5 h | baseline: tumour over muscle | tumour-to-muscle ratio | 5.96
CC[C@H](C)[C@H](NC(=O)[C@H](CCCCN)NC(=O)CNC(=O)[C@H](CC(C)C)NC(=O)[C@H](Cc1ccccc1)NC(=O)[C@H](CCCCN)NC(=O)[C@H](CO)NC(=O)[C@H](Cc1ccccc1)NC(=O)[C@H](Cc1c[nH]c2ccccc12)NC(=O)[C@H](CCC(N)=O)NC(=O)[C@@H](NC(=O)[C@H](Cc1ccccc1)NC(=O)CCCCCNC(=O)CN1CCN(CC(=O)O)CCN(CC(=O)O)CCN(CC(=O)O)CC1)C(C)C)C(=O)N[C@@H](CCC(=O)O)C(=O)N1CCC[C@H]1C(=O)N[C@@H](CC(=O)O)C(=O)N[C@H](C(=O)N[C@@H](CO)C(=O)N[C@@H](CCC(N)=O)C(=O)N[C@H](C(=O)N[C@@H](CCC(N)=O)C(=O)N[C@@H](CC(=O)O)C(=O)N1CCC[C@H]1C(=O)N[C@@H](CC(N)=O)C(=O)N[C@@H](CC(=O)O)C(=O)N[C@@H](CCC(N)=O)C(=O)N[C@@H](Cc1ccc(O)cc1)C(=O)N[C@@H](CCC(=O)O)C(=O)N1CCC[C@H]1C(=O)N[C@@H](Cc1ccccc1)C(=O)O)C(C)C)C(C)C [copper-64 labelled] | – | C57BL/6 male mouse, tumour-naive, brain | 1 h | – | tissue uptake | 0.31 ± 0.02 %ID/g
CC(=O)NCCCC[C@@H]1NC(=O)[C@H](Cc2c[nH]c3c(C)cccc23)NC(=O)[C@H]([C@@H](C)O)NC(=O)[C@H](CC(N)=O)NC(=O)[C@@H](NC(C)=O)C(C)(C)SSC(C)(C)[C@@H](C(=O)N[C@@H](Cc2ccc(OCCN)cc2)C(=O)N[C@@H](Cc2ccc3ccccc3c2)C(=O)NC2(C(=O)N[C@@H](CCC(=O)O)C(=O)N[C@@H](CC(N)=O)C(=O)N[C@@H](Cc3cccnc3)C(=O)N(C)CC(N)=O)CCOCC2)NC1=O | – | cynomolgus monkey, intervertebral ligament | intravenous, 1 mg/kg | – | tissue to plasma ratio | 156%
C=CC(=O)Nc1cccc(Cn2ncc3cnc(Nc4cnn(CCOC)c4)nc32)c1 | – | Sprague-Dawley rat female, serum | oral, 180 mg/kg, day 28, 28-day subacute toxicity | – | serum cholesterol | 1.51 ± 0.28 mM
CSCC[C@@H]1NC(=O)[C@H](C(C)C)NC(=O)[C@H](CCCNC(=N)N)NC(=O)[C@@H]2CCCN2C(=O)CNC(=O)[C@@H](NC(=O)CNC(=O)[C@H](CO)NC(=O)CNC(=O)[C@H](CO)NC(=S)Nc2ccc(C[C@H]3CN(CC(=O)O)CCN(CC(=O)O)CCN3CC(=O)O)cc2)CSSC[C@@H](C(N)=O)NC(=O)[C@@H]2CCCN2C(=O)CNC(=O)[C@H](CCC(=O)O)NC(=O)[C@H](CC(=O)O)NC(=O)[C@H](CC(=O)O)NC(=O)CNC(=O)[C@H](CC(C)C)NC(=O)[C@H](Cc2c[nH]cn2)NC(=O)[C@H](CC(C)C)NC(=O)CNC(=O)[C@H](Cc2c[nH]cn2)NC1=O [copper-64 labelled] | dynamic PET | CD rat, myocardial infarction, left ventricular blood pool | intravenous, 18.5 MBq | – | blood elimination half-life | 21.9 ± 2.4 min
O=C1NC2(CC2)COc2ncc(F)cc2[C@H]2COCCN2c2ccn3ncc1c3n2 | – | Sprague-Dawley rat, male, heart | oral, 10 mg/kg/day, 4 weeks | – | organ weight | 1.79 ± 0.24 g
O=C(O)/C=C\c1ccc2occc2c1O[C@@H]1O[C@H](CO)[C@@H](O)[C@H](O)[C@H]1O | – | rat, plasma | oral, dose not given, dosed as combined Eu and Pc extracts | baseline: single extracts | AUC(0-inf) decrease | 455 ± 390 µg·h/mL
CC(C)[C@@H]1NC(=O)CNC(=O)[C@H](CC(N)=O)NC(=O)[C@H](CCCNC(=N)N)NC(=O)[C@H](Cc2ccc(O)cc2)NC(=O)[C@H](C(C)C)NC(=O)[C@@H](NC(=O)[C@@H](NC(=O)[C@H](CC(N)=O)NC(=O)[C@H](Cc2c[nH]c3ccccc23)NC(=O)[C@H](C)NC(=O)[C@H](Cc2ccccc2)NC(=O)CNC(=O)[C@H](CCCCN)NC(=O)[C@H](Cc2ccccc2)NC(=O)[C@H](Cc2ccccc2)NC(=O)[C@H](CCCCN)NC(=O)OCC2c3ccccc3-c3ccccc32)C(C)C)CSSC[C@@H](C(=O)N[C@@H](Cc2c[nH]cn2)C(=O)N[C@@H](CCCNC(=N)N)C(=O)N[C@@H](CCCNC(=N)N)C(=O)N[C@@H](C)C(=O)N[C@@H](CC(N)=O)C(N)=O)NC(=O)[C@H](C(C)C)NC(=O)[C@H](CCCNC(=N)N)NC1=O | – | ICR mice, blood | intraperitoneal, 10 mg/kg, day 5 | – | monocytes | 3.31 ± 0.55%
Cc1ccc(OCC(=O)N(Cc2cccs2)c2ccn[nH]2)cc1 | in vivo micronucleus | Crl:CD-1(ICR) mice, female, bone marrow polychromatic erythrocytes | oral, 2000 mg/kg/day, 3 days | – | micronucleated PCEs | 0.01 ± 0.02%
CN1Cc2cc(Cl)ccc2-n2c(nnc2C2CCN(c3cccc([18F])n3)CC2)C1 | – | C57BL/6 mouse male, urinary bladder | intravenous, 3.7 MBq, 30 min | – | tissue uptake | 15.3 ± 3.74 %ID/g
N#[11C]c1ccc(-c2csc(NN=C3CCCC3)n2)cc1 | radio-HPLC | C57BL/6 mouse, plasma | intravenous, 37 MBq, 5 min | – | unchanged compound | 28% and 27.5%

Some of these lines once more:
Compound | test | system | conditions | scale | measurement | result
N#[11C]c1ccc(-c2csc(NN=C3CCCC3)n2)cc1 | radio-HPLC | C57BL/6 mouse, plasma | intravenous, 37 MBq, 5 min | – | unchanged compound | 28% and 27.5%
